Assay results collected from several papers.
Compare with care: the assays were run in different laboratories.
EGFR del747-752/P753S: Epidermal growth factor receptor (EGFR, Homo sapiens, UniProt P00533, del747-752/P753S)
EGFR G719C: Epidermal growth factor receptor (EGFR, Homo sapiens, UniProt P00533, G719C)

CNC(=O)C1CCN(c2cc(C)c(F)cc2NC(=O)c2ccc(-c3cc(O)ccc3C)c(C)c2)CC1  remaining binding (Epidermal growth factor receptor (EGFR, Homo sapiens, UniProt P00533, del746-750); binding, competition with immobilised ligand; 1 µM): 95%
CC(=O)N1c2ccc(-c3ccc(CNC(=O)c4cn5cc(-c6cnc(N)nc6)nc(N6CCOCC6)c5n4)cc3)cc2CC[C@@H]1C  remaining binding (Epidermal growth factor receptor (EGFR, Homo sapiens, UniProt P00533); KINOMEscan; 10 µM): 96%
CCN1CCN(Cc2ccc(NC(=O)c3ccc(C)c(NC(=O)c4cncc(-c5cccs5)c4)c3)cc2C(F)(F)F)CC1  remaining binding (Epidermal growth factor receptor (EGFR, Homo sapiens, UniProt P00533, del752-759); binding, competition with immobilised ligand; 1 µM): 0%
CNC1C[S+]2CC[S+]3CC[S+](C1)[Ru-4]321([N]=C=S)[n]2c3ccc(OC)cc3c3c4c(c5cc(F)c[n+]1c5c32)C(=O)NC4=O (stereo not shown)  remaining binding (EGFR del747-752/P753S; KinomeScan; 0.1 µM; relative to: untreated): 82%
CCN1CCN(Cc2ccc(C(=O)Nc3ccc(C)c(NCc4cnc5[nH]ccc5c4OC)c3)cc2C(F)(F)F)CC1  remaining binding (EGFR del747-752/P753S; binding, competition with immobilised ligand; 1 µM): 3.5%
C=CC(=O)N1CCc2ccc(-n3c(=O)ccc4cnc5ccc(-c6cnn(C)c6)cc5c43)cc21  remaining binding (EGFR G719C; KINOMEscan; 1 µM; relative to: DMSO control): 64%
CC(C)=CC1OC(C)(C)C2C=C3C(=O)C(Cl)=CC(O)C3C3C(O)C4OC4C(=O)C132 (stereo not shown)  remaining binding (Epidermal growth factor receptor (EGFR, Homo sapiens, UniProt P00533, T790M); cell-free assay, competition with immobilised ligand; 10 µM): 90%
CN1CCN(Cc2ccc(NC(=O)c3cccc(C#Cc4cnc(N)c5ncccc45)c3)cc2C(F)(F)F)CC1  remaining binding (Epidermal growth factor receptor (EGFR, Homo sapiens, UniProt P00533, L858R); cell-free assay, competition with immobilised ligand; 0.5 µM): 18%
Nc1ncc2c(n1)-c1c([nH]c3ccc(C4=CCOCC4)cc13)CCC2  remaining binding (EGFR G719C; binding, competition with immobilised ligand; 1 µM): 59%
COc1c(Cl)cccc1Nc1c(-c2ccncc2C#C[C@@]2(C)CCCN2C(=O)/C=C/CN(C)C)[nH]c2c1C(=O)NCC2  remaining binding (Epidermal growth factor receptor (EGFR, Homo sapiens, UniProt P00533, G719S); cell-free assay, competition with immobilised ligand; 3 µM): 0%
